Published values collected from several papers.
Parts stem from different laboratories: compare values within a part only. Substitutions count along the parent as printed.

Study 1
Target: Histone acetyltransferase KAT6A, winged helix 2, GST fusion (KAT6A, Homo sapiens, UniProt Q92794, residues 85-181)
Method: protein binding microarray
Molecule type: double-stranded DNA, one strand shown
Matrix: in vitro
Concentration: not given
Notes: 8-mer, flanks averaged, mean of 2 arrays, mostly near background
Reference: not given
Direction: higher = stronger binding
Target sequence (chain): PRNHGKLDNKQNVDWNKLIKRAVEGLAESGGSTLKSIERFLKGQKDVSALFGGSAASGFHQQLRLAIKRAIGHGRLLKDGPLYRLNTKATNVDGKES
Sequence	E-score
ACAGCAGC	0.0805
CGTACCGC	0.0965
GCGGCCAC	0.0277
CGACGGTA	-0.0466
ATTAACAG	-0.0137
AGGGTGAG	-0.0222
CGCGCAGC	0.24
TAGAAGGA	-0.099
CTAAGGAG	-0.0481
GCGATAAC	-0.0595
CTTTGCAC	0.0389
CGACTGAC	-0.149
CACTAGGG	-0.054
GAACGCTA	-0.0966
CAACTGCA	0.119
CATCCTTA	-0.211
GAGCAGCC	0.118
AGGCTGAT	-0.0533
GTAATGAA	-0.0695
TCGTAAGA	-0.0831
ATCTGCGG	0.255
CGAGGCCA	-0.0417
CAGGATGG	0.0247
ATATGCCC	-0.242
GTTTCTAA	0.0956

Study 2
Target: ATF5, bZIP domain (human)
Method: DHFR protein complementation
Matrix: yeast
Notes: single substitutions, most at no-binding floor
Reference: wild-type JUN-FOS pair
Direction: higher = stronger binding
Starting sequence: JUN, bZIP domain (human); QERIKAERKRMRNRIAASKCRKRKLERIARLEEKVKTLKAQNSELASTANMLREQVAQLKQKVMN; partner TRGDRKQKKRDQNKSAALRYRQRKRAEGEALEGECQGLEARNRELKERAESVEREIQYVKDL
Change	binding fitness [natural log]
E54R	-1.35
K36H	-1.5
K39G	-1.47
V35S	-1.52
R30C	-1.33
Q41Y	-1.52
A49Y	-1.54
T37A	-1.37
A57V	-1.52
R30E	-1.16
L31M	-1.65
E44S	-1.48
Q41T	-1.52
A46H	-1.39
V35H	-1.48
M51L	-1.29
R30A	-1.47
L31I	-1.44
A29S	-1.37
K36V	-1.39
A29I	-1.42
L45I	-1.49
V56G	-1.46
M51R	-1.42
A49E	-1.27

Study 3
Target: ABI1, truncated, D143A, DHFR fusion (Arabidopsis thaliana)
Method: DHFR PCA, deep sequencing
Matrix: yeast
Notes: methotrexate growth selection, single substitutions
With: (+)-ABA 2500 µM
Reference: wild-type fitted maximum
Direction: higher = stronger binding
Starting sequence: PYL1, truncated, DHFR fusion (Arabidopsis thaliana); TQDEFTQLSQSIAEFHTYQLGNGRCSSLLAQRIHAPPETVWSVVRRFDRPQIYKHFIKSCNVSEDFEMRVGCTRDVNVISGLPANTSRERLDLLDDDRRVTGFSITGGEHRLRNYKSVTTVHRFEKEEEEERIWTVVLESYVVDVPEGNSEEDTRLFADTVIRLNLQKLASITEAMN
Change	relative binding score
V136S	83.6%
S150D	93.8%
R99G	97.3%
L8T	105%
H122R	66.3%
K116M	87.8%
L91S	37%
F47I	-0.6%
C25Y	65.6%
L8D	78.5%
C60H	51.7%
H122K	68.9%

Study 4
Target: Sal-like protein 4, full length isoform B (SALL4, Homo sapiens, UniProt Q9UJQ4-2, residues 1-616)
Method: universal PBM
Molecule type: double-stranded DNA, one strand shown
Matrix: in vitro
Concentration: not given
Notes: 8-mer, flanks averaged, mean of replicates
Direction: higher = stronger binding
Sequence	E-score
ACATAAGT	0.262
ACGTTTCG	-0.00011
ATTAGTAC	0.239
GCTGGCGA	-0.192
AAAACTTT	0.142
ACAATTTA	0.285
AAGATACT	0.104
GTAGAAAA	0.135
AGCGATCG	-0.138
CCGATACA	0.112
GCTGTTCA	0.0865
GCCTAAAA	0.00381
AAAGTCTG	0.0391
ATCAGAAG	0.153
ACACTATG	0.125
CAATCTAC	-0.0772
AGGTTCAA	0.0817
CTGCGATC	-0.127
ACAAGTTA	0.183
AAGGACCT	0.00218
GCTCCACA	-0.291
ACAGTTAA	0.0916
GATCATAC	-0.0457
AGCGTCAA	-0.0131
AAATCTAC	0.254

Study 5
Target: Interferon regulatory factor 5, full length, phosphomimetic (IRF5, Homo sapiens, UniProt Q13568-2, residues 1-514, K96S/S451D/S453D/S456D/S462D)
Method: protein-binding microarray
Molecule type: double-stranded DNA, one strand shown
Matrix: in vitro
Concentration: 250 nM
Notes: 60-bp whole probe
With: salmon DNA 0.4 mg/ml
Reference: random background probes
Direction: higher = stronger binding
Constant ends, left off below: GCCTAGCAC … GTCTTGATTCGCTTGACGCTGCTG
Sequence	log fluorescence
TCACCAATCTCTCTTCAACTGTGCTAG	0.292 z-score
GACGGTATCGGGTATCGGGCCGTGCTA	2.98 z-score
GAGGAACTGGGGTATCGAGACGTGCTA	0.141 z-score
GACGGTTTTGACACTGGGGACGTGCTA	0.218 z-score
TTCTCTCCCATTCTGAATTCGTGCTAG	0.718 z-score
TTAGGTATCCTGCTCCTTTAGTGCTAG	-0.122 z-score
GACAGACTGGGGTATCGGGACGTGCTA	0.14 z-score
GACGATTTCAGTCTCGAAACGTGCTAG	2.1 z-score
TTAGGTTTCGGGTAGCGGTTAGTGCTA	8.54 z-score
TTGTGTCTGGGATTTTGTCCGTGCTAG	-0.132 z-score
GACGGTTTCGGTTCAGGGACGTGCTAG	9.66 z-score
TGAGATTTCAGTCTCGATTAGTGCTAG	1.94 z-score
TTCGGTTTCGGGACTGGGTTAGTGCTA	7.27 z-score
TTAGAACTGAGTAACGATTAGTGCTAG	0.29 z-score
TTCTATGTCTGTTTTTGCTTGTGCTAG	0.842 z-score
GACGATCTCAGTCTCGAGATGTGCTAG	0.0334 z-score
TCATGTGTGCATCTATCACTGTGCTAG	0.0841 z-score
TTAGATTTCGGTTTCGATTAGTGCTAG	11.2 z-score
TTAGTTCTCCTTATCCTTTAGTGCTAG	0.68 z-score
TTAGAACTGATACTGGATTAGTGCTAG	0.601 z-score
GACGAACTGATTCTCGAGACGTGCTAG	0.0689 z-score
GACGATCTCAGTTTCGGGACGTGCTAG	6.15 z-score

Study 6
Target: CCNE2, cyclin fold, Cln2 fusion (human)
Method: yeast growth competition, sequencing
Matrix: yeast
Notes: weak parent motif
Reference: not given
Direction: higher = stronger binding
Starting sequence: CDC6 docking peptide (human); TLKGRRLVFDNQL; partner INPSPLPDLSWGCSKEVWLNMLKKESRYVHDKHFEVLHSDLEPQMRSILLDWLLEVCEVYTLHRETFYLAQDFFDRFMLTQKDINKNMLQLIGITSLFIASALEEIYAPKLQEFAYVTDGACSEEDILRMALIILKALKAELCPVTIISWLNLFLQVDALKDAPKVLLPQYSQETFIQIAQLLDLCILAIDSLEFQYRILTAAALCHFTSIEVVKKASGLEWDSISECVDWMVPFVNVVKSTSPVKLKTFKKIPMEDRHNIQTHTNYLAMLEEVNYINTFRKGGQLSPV
Change	normalised enrichment score
Q12Y	0.899
L2I	0.514
K3M	-0.0478
T1R	0.4
D10N	1.25
K3E	-0.192
G4A	0.308
F9W	0.605
R5K	-0.0345
L7D	-0.00959
D10P	-0.256
N11T	0.628
R5I	-0.218
L7E	0.289
N11I	0.163
D10F	1.05
L13A	0.423
K3Q	0.531
L13I	1.12

Mixed results
Molecule	target	assay	system	conditions	how to read	quantity	result
PhoQ, residues 284 288 289 292 302 303 ALAMYF	PhoP, residues 12 14 15 18 19 LWHVM (Escherichia coli, UniProt P23836)	Sort-seq, measured: YFP reporter	E. coli	PhoQ-PhoP variant library, with: 10 µM Mg2+	reference: high Mg2+ state, higher = stronger signaling	fold induction	2.97

For quick reference, copied from above (study 4):
Sequence	E-score
GCTGGCGA	-0.192
ACAAGTTA	0.183
GCCTAAAA	0.00381
AGCGTCAA	-0.0131
AAAGTCTG	0.0391
AAAACTTT	0.142
AAATCTAC	0.254
CAATCTAC	-0.0772
GATCATAC	-0.0457
ACAGTTAA	0.0916
